Results pooled from the literature.
Protocols differ between the studies behind these lines. “And” joins repeats or separate records; there may be more than shown. Numbers after ± are the reported error. The star is where a group is joined.
B1: UGT1A9 (Homo sapiens, UniProt O60656); chain GKLLVVPMDGSHWFTMRSVVEKLILRGHEVVVVMPEVSWQLGRSLNCTVKTYSTSYTLEDLDREFKAFAHAQWKAQVRSIYSLLMGSYNDIFDLFFSNCRSLFKDKKLVEYLKESSFDAVFLDPFDNCGLIVAKYFSLPSVVFARGILCHYLEEGAQCPAPLSYVPRILLGFSDAMTFKERVRNHIMHLEEHLLCHRFFKNALEIASEILQTPVTEYDLYSHTSIWLLRTDFVLDYPKPVMPNMIFIGGINCHQGKPLPMEFEAYINASGEHGIVVFSLGSMVSEIPEKKAMAIADALGKIPQTVLWRYTGTRPSNLANNTILVKWLPQNDLLGHPMTRAFITHAGSHGVYESICNGVPMVMMPLFGDQMDNAKRMETKGAGVTLNVLEMTSEDLENALKAVINDKSYKENIMRLSSLHKDRPVEPLDLAVFWVEFVMRHKGAPHLRPAAHDLTWYQYHSLDVIGFLLAVVLTVAFITFKCCAYGYRKCLGKKGRVKKAHKSKTH

Substance | target or system | test | setting | quantity | value
Nc1ncnc2c1ncn2[C@@H]1O[C@H](COP(=O)(O)OP(=O)(O)OP(=O)(O)O)[C@@H](O)[C@H]1O | Unconventional myosin-Ic, one IQ, actin-free (Myo1c, Rattus norvegicus, UniProt Q63355) | substrate |  | Km | 184 ± 22 µM
CC(=O)Oc1cc2c(cc1F)C1(OC(=O)c3ccccc31)c1cc(F)c(OC(C)=O)cc1O2 | porcine liver esterase | substrate, fluorogenic hydrolysis | pH 7.4, 23 °C, DMSO up to 1.5% | Km | 5.3 µM
Nc1ccc2c(O)c(N=Nc3ccc(N=Nc4ccc(N=Nc5cc(S(=O)(=O)O)c6cccc(S(=O)(=O)O)c6c5)c5ccccc45)c4ccc(S(=O)(=O)O)cc34)c(S(=O)(=O)O)cc2c1 | ancestral dye-decolorizing peroxidase | peroxidase activity, substrate, steady-state kinetics | 25 °C, pH 3.0 ABTS, 4.0 others | Km | 13 µM
B1 (UGT1A9) | O=c1c(O)c(-c2ccc(O)c(O)c2)oc2cc(O)ccc12 | steady-state kinetics | pH 7.4, 37 °C | Vmax | 0.00162 µmol/min/mg and 0.00262 µmol/min/mg
Nc1c(N=Nc2ccc(S(=O)(=O)CCOS(=O)(=O)O)cc2)c(S(=O)(=O)O)cc2cc(S(=O)(=O)O)c(N=Nc3ccc(S(=O)(=O)CCOS(=O)(=O)O)cc3)c(O)c12 | ancestral dye-decolorizing peroxidase | peroxidase activity, substrate, steady-state kinetics | 25 °C, pH 3.0 ABTS, 4.0 others | Km | 13 µM
N[C@@H](Cc1c[nH]cn1)C(=O)O | Histidine--tRNA ligase, cytoplasmic (HARS1, Homo sapiens, UniProt P12081, S356N) | substrate | pH 7.5, together with: 10 mM ATP, 5 µM tRNAHis | Km | 10.8 ± 9.1 µM
Nc1ncnc2c1ncn2[C@@H]1O[C@H](COP(=O)(O)OP(=O)(O)OP(=O)(O)O)[C@@H](O)[C@H]1O | kinesin-II double chimera, Caenorhabditis elegans | microtubule gliding velocity, substrate |  | Km | 540 µM
NC(=O)C1=CN([C@@H]2O[C@H](COP(=O)(O)OP(=O)(O)OC[C@H]3O[C@@H](n4cnc5c(N)ncnc54)[C@H](OP(=O)(O)O)[C@@H]3O)[C@@H](O)[C@H]2O)C=CC1 | Saccharopine dehydrogenase [NADP(+), L-glutamate-forming], D126A (LYS9, Saccharomyces cerevisiae, UniProt P38999) | enzyme activity, substrate | pH 7.0, 25 °C, D126A mutant, together with: AASA and L-glutamate saturating | Km | 44 ± 5 µM
N[C@@H](Cc1ccccc1)C(=O)O | phenylalanine/tyrosine ammonia-lyase Cutaneotrichosporon cutaneum | substrate, trans-cinnamate absorbance | pH 7.5, 30 °C, 10% glycerol | Km | 6100 ± 600 µM
CCCCCCCC(=O)SCCNC(=O)CCNC(=O)[C@H](O)C(C)(C)COP(=O)(O)OP(=O)(O)OC[C@H]1O[C@@H](n2cnc3c(N)ncnc32)[C@H](O)[C@@H]1OP(=O)(O)O | Membrane-bound ghrelin O-acyltransferase MBOAT4 (Mus musculus, UniProt P0C7A3) | substrate |  | Km | 0.4 to 0.8 µM
O=S(=O)(O)c1cc(Nc2nc(Cl)nc(Cl)n2)c2c(O)c(N=Nc3ccccc3)c(S(=O)(=O)O)cc2c1 | ancestral dye-decolorizing peroxidase | peroxidase activity, substrate, steady-state kinetics | 25 °C, pH 3.0 ABTS, 4.0 others | Km | 6.8 µM
Ac-LDEVD-pNA (N-acetyl, C-pNA; pNA = O=[N+]([O-])c1ccc(N*)cc1) | Caspase-6 (CASP6, Homo sapiens, UniProt P55212) | substrate, colorimetric p-nitroanilide release | pH 7.25 | Km | 440 ± 40 µM
